Experimental data pooled from the literature.
Protocols differ between the studies behind these lines. “And” joins repeats or separate records; there may be more than shown. ± gives the spread as reported.
CPL: CPL (Toxoplasma gondii, UniProt Q6DMN0)
AR: Androgen receptor (AR, Homo sapiens, UniProt P10275)
UniProt P10275, sequence (whole entry, looked up): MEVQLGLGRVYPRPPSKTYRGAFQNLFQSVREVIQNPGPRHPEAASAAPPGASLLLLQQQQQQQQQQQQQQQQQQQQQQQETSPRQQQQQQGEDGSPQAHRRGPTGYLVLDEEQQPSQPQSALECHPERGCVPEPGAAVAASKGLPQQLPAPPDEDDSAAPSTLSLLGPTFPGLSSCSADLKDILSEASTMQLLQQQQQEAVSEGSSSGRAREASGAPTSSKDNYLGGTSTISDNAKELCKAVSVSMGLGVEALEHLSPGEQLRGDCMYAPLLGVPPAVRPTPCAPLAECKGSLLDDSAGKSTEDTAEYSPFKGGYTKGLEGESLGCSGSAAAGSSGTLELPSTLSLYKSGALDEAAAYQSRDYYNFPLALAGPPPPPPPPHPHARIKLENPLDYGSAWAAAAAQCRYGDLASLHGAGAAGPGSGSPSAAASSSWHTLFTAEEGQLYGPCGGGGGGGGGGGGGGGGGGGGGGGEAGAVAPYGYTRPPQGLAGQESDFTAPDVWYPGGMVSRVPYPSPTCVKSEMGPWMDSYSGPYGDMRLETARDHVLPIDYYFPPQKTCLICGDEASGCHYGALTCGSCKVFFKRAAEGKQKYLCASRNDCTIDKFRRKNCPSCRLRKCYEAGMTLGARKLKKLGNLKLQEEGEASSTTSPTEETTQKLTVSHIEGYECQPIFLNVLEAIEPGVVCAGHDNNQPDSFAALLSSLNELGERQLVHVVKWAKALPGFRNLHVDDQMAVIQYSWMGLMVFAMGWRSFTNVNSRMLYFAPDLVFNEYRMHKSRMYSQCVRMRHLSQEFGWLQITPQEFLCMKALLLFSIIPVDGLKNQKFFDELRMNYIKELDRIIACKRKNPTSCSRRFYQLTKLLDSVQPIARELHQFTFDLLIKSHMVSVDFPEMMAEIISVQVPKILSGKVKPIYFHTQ
UniProt P55211, sequence (whole entry, looked up): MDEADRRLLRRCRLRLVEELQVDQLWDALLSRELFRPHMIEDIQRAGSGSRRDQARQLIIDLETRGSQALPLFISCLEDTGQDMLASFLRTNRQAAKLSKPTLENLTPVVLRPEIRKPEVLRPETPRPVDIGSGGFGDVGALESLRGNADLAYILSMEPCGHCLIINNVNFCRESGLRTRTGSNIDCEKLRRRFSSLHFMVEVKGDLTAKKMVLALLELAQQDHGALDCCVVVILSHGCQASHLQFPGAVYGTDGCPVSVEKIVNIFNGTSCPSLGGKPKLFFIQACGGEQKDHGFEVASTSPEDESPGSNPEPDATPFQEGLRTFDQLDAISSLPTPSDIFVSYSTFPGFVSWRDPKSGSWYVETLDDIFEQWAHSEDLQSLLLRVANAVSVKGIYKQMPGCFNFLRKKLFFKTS
UniProt O75762, sequence (whole entry, looked up): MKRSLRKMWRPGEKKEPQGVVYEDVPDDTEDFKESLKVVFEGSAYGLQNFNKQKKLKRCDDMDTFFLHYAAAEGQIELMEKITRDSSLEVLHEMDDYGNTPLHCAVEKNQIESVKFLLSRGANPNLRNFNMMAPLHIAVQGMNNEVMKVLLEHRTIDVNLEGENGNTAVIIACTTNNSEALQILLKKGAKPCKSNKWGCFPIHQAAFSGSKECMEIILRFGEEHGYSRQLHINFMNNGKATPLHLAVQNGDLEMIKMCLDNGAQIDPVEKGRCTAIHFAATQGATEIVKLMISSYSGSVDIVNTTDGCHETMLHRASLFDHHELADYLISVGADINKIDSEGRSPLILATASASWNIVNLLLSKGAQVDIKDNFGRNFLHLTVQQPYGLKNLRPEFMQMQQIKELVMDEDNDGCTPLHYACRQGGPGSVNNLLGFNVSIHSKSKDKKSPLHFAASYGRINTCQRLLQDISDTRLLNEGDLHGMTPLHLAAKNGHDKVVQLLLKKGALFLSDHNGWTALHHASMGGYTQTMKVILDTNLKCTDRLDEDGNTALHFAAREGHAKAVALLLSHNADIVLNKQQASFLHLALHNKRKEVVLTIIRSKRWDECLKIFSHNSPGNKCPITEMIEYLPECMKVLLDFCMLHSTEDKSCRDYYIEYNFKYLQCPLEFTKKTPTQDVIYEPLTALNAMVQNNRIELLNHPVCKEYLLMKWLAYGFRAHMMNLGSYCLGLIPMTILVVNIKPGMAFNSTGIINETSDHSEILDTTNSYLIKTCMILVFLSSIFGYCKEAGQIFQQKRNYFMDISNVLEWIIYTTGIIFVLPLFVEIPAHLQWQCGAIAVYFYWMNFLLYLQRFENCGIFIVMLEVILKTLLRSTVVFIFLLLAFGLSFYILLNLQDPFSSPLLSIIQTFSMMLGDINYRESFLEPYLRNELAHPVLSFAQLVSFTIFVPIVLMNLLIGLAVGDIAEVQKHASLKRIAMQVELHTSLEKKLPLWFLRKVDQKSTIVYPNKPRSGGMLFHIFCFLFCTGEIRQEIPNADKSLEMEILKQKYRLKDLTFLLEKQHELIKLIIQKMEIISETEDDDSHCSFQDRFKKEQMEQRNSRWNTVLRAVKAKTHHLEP
UniProt Q7RTX7, sequence (whole entry, looked up): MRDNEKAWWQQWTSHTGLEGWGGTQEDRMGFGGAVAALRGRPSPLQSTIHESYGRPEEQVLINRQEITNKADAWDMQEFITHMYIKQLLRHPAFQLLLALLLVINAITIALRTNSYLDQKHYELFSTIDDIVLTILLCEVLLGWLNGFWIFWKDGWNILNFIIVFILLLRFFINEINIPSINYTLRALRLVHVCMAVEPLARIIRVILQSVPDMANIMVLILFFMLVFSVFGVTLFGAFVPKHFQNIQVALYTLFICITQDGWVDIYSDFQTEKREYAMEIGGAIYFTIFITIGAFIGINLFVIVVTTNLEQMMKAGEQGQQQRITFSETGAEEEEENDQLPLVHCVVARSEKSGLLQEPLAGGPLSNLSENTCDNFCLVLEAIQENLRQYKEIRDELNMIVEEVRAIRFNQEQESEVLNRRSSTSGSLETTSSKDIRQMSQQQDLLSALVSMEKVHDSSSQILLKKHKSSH
UniProt Q86XQ3, sequence (whole entry, looked up): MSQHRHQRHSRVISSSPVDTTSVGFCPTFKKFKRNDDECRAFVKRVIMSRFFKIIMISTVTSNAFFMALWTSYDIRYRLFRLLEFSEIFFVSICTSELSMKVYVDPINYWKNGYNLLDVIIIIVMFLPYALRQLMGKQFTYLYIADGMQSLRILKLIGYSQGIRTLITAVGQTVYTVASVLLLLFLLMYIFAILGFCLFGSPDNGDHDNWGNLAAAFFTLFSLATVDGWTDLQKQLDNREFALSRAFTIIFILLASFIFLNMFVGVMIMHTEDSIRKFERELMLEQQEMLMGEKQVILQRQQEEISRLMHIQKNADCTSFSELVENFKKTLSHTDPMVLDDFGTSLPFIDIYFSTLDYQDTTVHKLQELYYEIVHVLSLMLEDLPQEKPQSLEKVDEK
UniProt O43614, sequence (whole entry, looked up): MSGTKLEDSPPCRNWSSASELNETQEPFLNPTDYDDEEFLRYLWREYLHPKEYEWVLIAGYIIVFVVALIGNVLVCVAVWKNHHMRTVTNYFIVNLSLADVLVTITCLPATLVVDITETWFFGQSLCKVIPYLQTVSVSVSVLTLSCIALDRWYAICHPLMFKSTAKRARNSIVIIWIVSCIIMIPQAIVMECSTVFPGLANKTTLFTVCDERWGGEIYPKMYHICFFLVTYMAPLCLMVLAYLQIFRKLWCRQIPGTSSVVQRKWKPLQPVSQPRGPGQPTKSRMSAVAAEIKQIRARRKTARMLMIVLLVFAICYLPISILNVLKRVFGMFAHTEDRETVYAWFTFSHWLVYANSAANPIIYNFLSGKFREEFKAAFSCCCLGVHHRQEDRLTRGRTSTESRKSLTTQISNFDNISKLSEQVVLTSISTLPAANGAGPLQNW
UniProt P78325, sequence (whole entry, looked up): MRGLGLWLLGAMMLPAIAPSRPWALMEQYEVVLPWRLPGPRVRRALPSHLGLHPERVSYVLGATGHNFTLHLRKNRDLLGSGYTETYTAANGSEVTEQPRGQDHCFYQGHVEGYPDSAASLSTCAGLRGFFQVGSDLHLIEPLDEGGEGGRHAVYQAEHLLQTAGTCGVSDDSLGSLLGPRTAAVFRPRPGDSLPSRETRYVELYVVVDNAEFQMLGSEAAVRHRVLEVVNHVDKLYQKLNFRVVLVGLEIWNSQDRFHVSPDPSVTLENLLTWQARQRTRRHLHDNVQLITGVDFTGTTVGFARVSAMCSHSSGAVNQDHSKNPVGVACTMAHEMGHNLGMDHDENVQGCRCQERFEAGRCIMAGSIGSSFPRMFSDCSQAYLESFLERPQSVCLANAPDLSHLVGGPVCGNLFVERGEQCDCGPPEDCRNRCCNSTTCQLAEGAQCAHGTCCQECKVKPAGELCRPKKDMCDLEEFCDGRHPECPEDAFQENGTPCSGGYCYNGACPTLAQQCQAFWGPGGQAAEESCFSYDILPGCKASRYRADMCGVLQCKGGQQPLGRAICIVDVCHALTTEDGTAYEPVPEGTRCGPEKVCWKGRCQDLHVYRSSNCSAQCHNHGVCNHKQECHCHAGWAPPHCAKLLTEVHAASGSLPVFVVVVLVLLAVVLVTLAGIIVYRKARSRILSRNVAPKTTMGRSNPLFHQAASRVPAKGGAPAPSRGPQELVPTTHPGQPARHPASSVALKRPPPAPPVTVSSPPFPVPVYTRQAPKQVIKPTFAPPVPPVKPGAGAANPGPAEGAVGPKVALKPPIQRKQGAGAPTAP
UniProt P28300, sequence (whole entry, looked up): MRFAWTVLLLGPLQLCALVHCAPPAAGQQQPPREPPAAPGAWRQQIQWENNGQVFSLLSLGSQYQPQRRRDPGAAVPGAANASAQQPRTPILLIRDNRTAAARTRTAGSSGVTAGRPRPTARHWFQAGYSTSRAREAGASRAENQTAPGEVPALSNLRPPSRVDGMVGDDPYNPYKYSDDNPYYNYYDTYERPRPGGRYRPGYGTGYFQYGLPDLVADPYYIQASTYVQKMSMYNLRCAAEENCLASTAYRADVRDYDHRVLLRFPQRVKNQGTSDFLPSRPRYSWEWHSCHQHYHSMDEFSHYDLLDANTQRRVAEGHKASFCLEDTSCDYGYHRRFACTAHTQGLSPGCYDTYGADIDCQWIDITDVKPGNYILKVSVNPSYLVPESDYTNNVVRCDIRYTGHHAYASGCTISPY

With `CC(=O)Nc1ccc(S(=O)(=O)N2CCN(c3nc4ccc(Cl)cc4o3)CC[C@H]2C)cc1` the IC50 was 2050 nM (HCRTR2 (Homo sapiens, UniProt O43614); calcium signal, antagonist, fluorescence).
For `C=CC[C@](C)(NC(=O)[C@H](CC(C)C)NC(=O)[C@H](CCCCN)NC(=O)[C@H](CC(C)C)NC(=O)[C@](C)(CC=C)NC(=O)[C@H](Cc1ccccc1)NC(=O)[C@H](Cc1ccc(O)cc1)NC(=O)[C@H](C)NC(=O)[C@@H](N)[C@@H](C)O)C(=O)NCC(=O)N[C@@H](CCCNC(=N)N)C(=O)N[C@@H](Cc1c[nH]c2ccccc12)C(N)=O`, the IC50 was over 333000 nM (Gag-Pol polyprotein, integrase (gag-pol, Human immunodeficiency virus type 1 group M subtype B, UniProt P04585); integrase 3'-processing, inhibitor).
`O=C1c2ccccc2[Se](=O)N1c1ccccc1` (stereo not shown) has an IC50 of 2370 nM (HDAC9 (Homo sapiens, UniProt Q9UKV0); enzyme activity, inhibitor, fluorescence).
For `COC(=O)c1ccccc1CN(CCC(C)C)c1nc(C#N)nc(N2CCOCC2)n1`, the IC50 was 123 nM (CPL; enzyme activity, inhibitor, Z-L-R-AMC hydrolysis fluorescence).
With `C#CCSc1nc(Sc2nnnn2C)c2nnn(Cc3ccccc3)c2n1` the IC50 was 100 nM (KDM1A (Homo sapiens, UniProt O60341); enzyme activity, inhibitor, fluorescence).
`O=C(CCCCCCC(=O)Nc1cccc(N=Nc2ccccc2)c1)NO` gave an IC50 of 47 ± 13 nM (HDAC6 (Homo sapiens, UniProt Q9UBN7); enzyme activity, inhibitor; cis isomer, irradiated).
With `CC(C)P(=S)(NP(=[Se])(C(C)C)C(C)C)C(C)C` the IC50 was 376000 nM (Alpha-amylase (Bacillus subtilis, UniProt P00691); enzyme activity, inhibitor, absorbance; pH 6.9).
For `O=C(O)c1ccccc1Nc1ccc(Oc2ccc(C(F)(F)F)cc2)cc1`, the IC50 was 53000 ± 5100 nM (AR; reporter gene, antagonist, MMTV-Luc reporter; MDA-kb2; 20 h, with: 8 nM DHT (EC90)).
For `CC[C@H](C)[C@@H]1NC(=O)[C@@H]2CCCN2C(=O)[C@@H]2CCCN2C(=O)[C@H]([C@@H](C)CC)NC(=O)[C@H](CO)NC(=O)[C@H](CCCCN)NC(=O)[C@H]([C@@H](C)O)NC(=O)[C@@H]2CSSC[C@H](NC1=O)C(=O)N[C@@H](Cc1ccccc1)C(=O)N1CCC[C@H]1C(=O)N[C@@H](CC(=O)O)C(=O)NCC(=O)N[C@@H](CCCNC(=N)N)C(=O)N2`, the IC50 was over 50000 nM (Lymphocyte function-associated antigen 3, with CD2 (CD58, Homo sapiens, UniProt P19256); human cells).
With `O=C(N[C@@H](CC1CCCCC1)C(=O)N[C@@H](C[C@H]1CCNC1=O)C(=O)C(=O)NC1CC1)OCc1cccc(Cl)c1` the IC50 was 22 ± 50 nM (Genome polyprotein, 3C protease (Human enterovirus D68, UniProt Q68T42); 3C protease activity, inhibitor, FRET).
With `CSCC[C@H](NC(=O)[C@H](Cc1ccccc1)NC(=O)[C@H](Cc1cnc[nH]1)NC(=O)CNC(=O)[C@@H](NC(=O)[C@H](C)NC(=O)[C@H](Cc1c[nH]c2ccccc12)NC(=O)[C@H](CC(C)C)NC(=O)[C@H](CC(N)=O)NC(=O)CN)[C@@H](C)O)C(N)=O` the IC50 was over 3000 nM (BRS3 (Homo sapiens, UniProt P32247); human GRPR activity, cell-based).
`CC(C)C[C@@H]1NC(=O)[C@H](C(C)C)NC(=O)[C@H](C)NC(=O)[C@H](Cc2ccc(O)cc2)NC(=O)[C@H](CCC(N)=O)NC(=O)[C@H](CC(C)C)NC(=O)[C@@H](Cc2ccc(O)cc2)NC(=O)CSC[C@@H](C(N)=O)NC(=O)[C@H](CCC(=O)O)NC(=O)[C@H](CCCNC(=N)N)NC(=O)[C@H](CCCNC(=N)N)NC(=O)[C@H](CCCCN)NC(=O)[C@H](Cc2c[nH]cn2)NC(=O)[C@H](CCCNC(=N)N)NC1=O` has an IC50 of over 10000 nM (TMPRSS2 (Homo sapiens, UniProt O15393); enzyme activity, inhibitor).
With `CC(=O)N[C@@H](CC(C)C)C(=O)N[C@@H](CCC(=O)O)C(=O)N[C@@H](CO)C(=O)N[C@@H](CC(=O)O)C(=O)CCl` the IC50 was 7500 nM and 7450 nM (Caspase-9 (CASP9, Homo sapiens, UniProt P55211); enzyme activity, inhibitor, fluorescence).
The IC50 of `CC[C@H](C)[C@@H]1NC(=O)[C@H](Cc2ccccc2)NC(=O)[C@H](CC(=O)O)NC(=O)[C@@H](NC(C)=O)CSC(=O)[C@H](CCSC)NC1=O` is reported as 516 nM (Accessory gene regulator protein C (Staphylococcus aureus, UniProt O33590)).
The IC50 of `COC(=O)C1CN1S(=O)(=O)c1ccc(C(C)(C)C)cc1` (stereo not shown) is reported as 420 nM (P4HB (Homo sapiens, UniProt P07237); enzyme activity, inhibitor, absorbance; pH 7.6).
`O=C(O)c1ccccc1Nc1ccc(Oc2ccccc2)cc1` gave an IC50 of 900 ± 300 nM (AR; reporter gene, antagonist, MMTV-Luc reporter; MDA-kb2; 20 h, with: 0.2 nM DHT (EC50)).
`CC(C)=CCCC1(C)C=Cc2c(ccc3cc(-c4cc(O)cc(O)c4CC=C(C)C)oc23)O1` (stereo not shown) has an IC50 of 6360 nM (GSK3B (Homo sapiens, UniProt P49841); enzyme activity, inhibitor).
`Cc1ccc2c(n1)c(-c1cccc(S(C)(=O)=O)c1)c(C)n2C/C(F)=C/CN` has an IC50 of 833 nM (Protein-lysine 6-oxidase (Homo sapiens, UniProt P28300); enzyme activity, inhibitor, fluorescence; with preincubation).
`CCN(CC)C(=O)N1CCN(c2cccc(C(F)(F)F)c2)CC1` gave an IC50 of 39000 nM (CatSper channel complex (Homo sapiens, UniProt Q7RTX7+Q86XQ3+Q8NEC5+Q96P56); calcium influx, inhibitor, FLIPR; human sperm; with: 3 µM progesterone).
The IC50 of `N#Cc1nc(N2CCOCC2)nc(N(Cc2ccccc2[N+](=O)[O-])CC2CCCNC2)n1` (stereo not shown) is reported as 3970 nM (CPL; enzyme activity, inhibitor, Z-L-R-AMC hydrolysis fluorescence).
For `CCOC(=O)c1cnc(N2CC[C@@H](NC(=O)c3[nH]c(C)c(Cl)c3Cl)[C@@H](OC)C2)o1`, the IC50 was over 10000 nM (DNA gyrase subunit B (Staphylococcus aureus, UniProt P0A0K8); enzyme activity).
For `CC(C)C[C@@H]1NC(=O)[C@H](Cc2c[nH]c3ccccc23)NC(=O)[C@H](Cc2ccc(O)cc2)NC(=O)[C@H](CCCNC(=N)N)NC(=O)[C@@H](NC(=O)[C@@H](N)CCC(=O)O)CSSC[C@@H]2NC(=O)[C@@H]3CSSC[C@@H](C(=O)N[C@H](C(=O)N[C@@H](Cc4c[nH]c5ccccc45)C(=O)N[C@@H](CC(=O)O)C(=O)NCC(=O)N[C@H](C(=O)N[C@@H](Cc4ccccc4)C(=O)N[C@@H](CO)C(=O)O)[C@@H](C)O)C(C)C)NC(=O)[C@H](Cc4c[nH]c5ccccc45)NC(=O)CNC(=O)[C@H](Cc4c[nH]cn4)NC(=O)[C@H](CCCNC(=N)N)NC(=O)[C@H](CCCNC(=N)N)NC(=O)[C@H](CO)NC(=O)[C@H](CSSC[C@H](NC(=O)CNC(=O)CNC1=O)C(=O)N[C@@H](CO)C(=O)N[C@@H](C)C(=O)NCC(=O)N[C@@H](CCC(N)=O)C(=O)N[C@@H]([C@@H](C)O)C(=O)N3)NC(=O)[C@H](C(C)C)NC(=O)[C@H](CC(C)C)NC(=O)[C@H](Cc1c[nH]cn1)NC(=O)[C@H](CCCCN)NC2=O`, the IC50 was 389 ± 77 nM (TRPA1 (Homo sapiens, UniProt O75762)).
`CC[C@H](C)[C@H](NC(=O)[C@H](CO)NC(=O)[C@H](Cc1ccc(O)cc1)NC(=O)[C@H](CC(=O)O)NC(=O)[C@H](CO)NC(=O)[C@@H](NC(=O)[C@H](Cc1ccccc1)NC(=O)[C@@H](NC(=O)CNC(=O)[C@@H]1CCCN1C(=O)[C@H](C)NC(=O)[C@@H](N)Cc1ccc(O)cc1)[C@@H](C)O)[C@@H](C)CC)C(=O)N[C@@H](C)C(=O)N[C@@H](CCSC)C(=O)N[C@@H](CC(=O)O)C(=O)N[C@@H](CCCCN)C(=O)N[C@H](C(=O)N[C@@H](CCCNC(=N)N)C(=O)N[C@@H](CCC(N)=O)C(=O)N[C@@H](CCC(N)=O)C(=O)N[C@@H](CC(=O)O)C(=O)N[C@@H](Cc1ccccc1)C(=O)N[C@H](C(=O)N[C@@H](CC(N)=O)C(=O)N[C@@H](Cc1c[nH]c2ccccc12)C(=O)N[C@@H](CC(C)C)C(=O)N[C@@H](CC(C)C)C(=O)N[C@@H](C)C(=O)N[C@@H](CCC(N)=O)C(=O)N[C@@H](CCCCN)C(=O)NCC(=O)N[C@@H](CCCCN)C(=O)N[C@@H](CCCCN)C(=O)N[C@@H](CC(N)=O)C(=O)N[C@@H](CC(=O)O)C(=O)N[C@@H](Cc1c[nH]c2ccccc12)C(=O)N[C@@H](CCCCN)C(=O)N[C@@H](Cc1c[nH]cn1)C(=O)N[C@@H](CC(N)=O)C(=O)N[C@@H](CC(C)C)C(=O)N[C@H](C(=O)N[C@@H](CCC(N)=O)C(=O)O)[C@@H](C)O)C(C)C)[C@@H](C)CC` gave an IC50 of 12.6 nM (GIPR (Homo sapiens, UniProt P48546); ligand displacement in cells, radioligand).
`NCCCC[C@H](N)C(=O)N[C@@H](Cc1ccc(O)cc1)C(=O)N[C@@H](CC(N)=O)C(=O)N1CCC[C@H]1C(=O)N[C@H]1CSC(=O)[C@H](Cc2ccccc2)NC(=O)[C@H](Cc2ccc(O)cc2)NC(=O)[C@H](CC(N)=O)NC(=O)[C@H](CO)NC1=O` gave an IC50 of 0.47 nM (Accessory gene regulator protein C (Staphylococcus epidermidis, UniProt O86861)).
`CC(C)C[C@@H]1NC(=O)[C@H](CCCNC(=N)N)NC(=O)[C@H](CCCCN)NC(=O)[C@H](C)NC(=O)[C@H](CCCCN)NC(=O)[C@@H](CO)NC1=O` has an IC50 of over 5000 nM (Disintegrin and metalloproteinase domain-containing protein 8 (Homo sapiens, UniProt P78325); enzyme activity, inhibitor, fluorescence).

Some of these lines once more:
With `CSCC[C@H](NC(=O)[C@H](Cc1ccccc1)NC(=O)[C@H](Cc1cnc[nH]1)NC(=O)CNC(=O)[C@@H](NC(=O)[C@H](C)NC(=O)[C@H](Cc1c[nH]c2ccccc12)NC(=O)[C@H](CC(C)C)NC(=O)[C@H](CC(N)=O)NC(=O)CN)[C@@H](C)O)C(N)=O` the IC50 was over 3000 nM (BRS3 (Homo sapiens, UniProt P32247); human GRPR activity, cell-based).
`CC(C)=CCCC1(C)C=Cc2c(ccc3cc(-c4cc(O)cc(O)c4CC=C(C)C)oc23)O1` (stereo not shown) has an IC50 of 6360 nM (GSK3B (Homo sapiens, UniProt P49841); enzyme activity, inhibitor).
With `O=C(N[C@@H](CC1CCCCC1)C(=O)N[C@@H](C[C@H]1CCNC1=O)C(=O)C(=O)NC1CC1)OCc1cccc(Cl)c1` the IC50 was 22 ± 50 nM (Genome polyprotein, 3C protease (Human enterovirus D68, UniProt Q68T42); 3C protease activity, inhibitor, FRET).
For `CCOC(=O)c1cnc(N2CC[C@@H](NC(=O)c3[nH]c(C)c(Cl)c3Cl)[C@@H](OC)C2)o1`, the IC50 was over 10000 nM (DNA gyrase subunit B (Staphylococcus aureus, UniProt P0A0K8); enzyme activity).
